# Published values from different studies.
# Several values in a cell are separate wells, animals, samples, runs or records. ± gives the spread as reported.
SMILES,cell line,assay,system,setting,how to read,endpoint,result
CC(=O)O[C@H]1C[C@H](O[C@H]2[C@@H](O)C[C@H](O[C@H]3[C@@H](O)C[C@H](O[C@H]4CC[C@@]5(C)[C@H](CC[C@@H]6[C@@H]5C[C@@H](O)[C@]5(C)[C@@H](C7=CC(=O)OC7)CC[C@]65O)C4)O[C@@H]3C)O[C@@H]2C)O[C@H](C)[C@H]1O[C@@H]1O[C@H](CO)[C@@H](O)[C@H](O)[C@H]1O,human iPSC-derived cardiomyocytes,"MyBP-C/MYH ratio, plate-normalised SD score",,"concentration not given, primary screen",direction not given,activity score,13.4
COc1c(C)c2c(c(O)c1C/C=C(\C)CCC(=O)O)C(=O)OC2,DLD-1,cell proliferation,colon cancer,,,IC50,0.407 µM
Nc1ncnc2c1ncn2[C@@H]1O[C@@H]2COP(=O)(O)O[C@H]3[C@@H](O)[C@H](n4cnc5c(=O)[nH]cnc54)O[C@@H]3COP(=O)(O)O[C@H]2[C@H]1O,HFF-1,"RNA sequencing, measured: Reactome R-HSA-3560801",,downregulated pathway,relative to: Zika virus alone,pathway fold enrichment,14.2
CS(=O)(=O)c1ccc(-c2nnc(/C=C/c3nnc(-c4ccc(C#N)cc4)o3)n2-c2ccccc2Cl)nc1,Apc Q1405X mutant organoids,"organoid area, live-cell imaging",mouse small intestinal organoids,"6 days, Tnks1 genotype Tnks1+/+",,EC50,0.0864 µM
COc1cc(CCC[P+](c2ccccc2)(c2ccccc2)c2ccccc2)c(OC)c2c1OCO2.[I-],HCT-15,SRB,,,,GI50,-4.87 log M
Cn1cc2cc(C(F)(F)c3nnc4ccc(-c5cnn(C6CC6)c5)nn34)c(F)cc2n1,MKN-45,annexin V/PI flow cytometry,,"20 nM, 48 h",,early apoptotic cells,7.67% and 13.4% and 8.67%
CC1=C(O)C(=O)C=C2C1=CC=C1[C@@]2(C)CC[C@@]2(C)[C@@H]3C[C@](C)(C(=O)O)CC[C@]3(C)CC[C@]12C,HepG2,"cell viability, CCK-8",,6 µM,higher = more viable cells,optical density,0.17 a.u. and 0.168 a.u. and 0.184 a.u. and 0.186 a.u. and 0.173 a.u.
CN[C@@H]1C[C@H]2O[C@@](C)([C@@H]1OC)n1c3ccccc3c3c4c(c5c6ccccc6n2c5c31)C(=O)NC4,iCell Cardiomyocytes (hiPSC-derived),xCELLigence Cardio impedance,,"concentration not given, 2 h",relative to: control,beat rate,0%
COc1ccc([C@H]2c3[nH]c4ccc(Cl)cc4c3CCN2C(=O)Oc2ccc(Cl)cc2)cc1,human dermal fibroblasts with PBMC,"cytokine secretion, measured: sIL-6",,"0.01 µM, 48 h",,inhibition,91%
CCN(CC)c1ccc(C=NNC(=O)CSc2nc3ccccc3c(=O)n2Cc2ccc(S(N)(=O)=O)cc2)c(O)c1,HCC 2998,NCI five-dose screen,,,,CC50,> 100 µM
CC[C@H](C)[C@H](NC(=O)[C@H](CC(C)C)NC(=O)[C@H](C)NC(=O)[C@H](CC(C)C)NC(=O)[C@@H](N)Cc1ccccc1)C(=O)N[C@@H](CC(C)C)C(=O)N[C@@H](CCCNC(=N)N)C(=O)N[C@@H](CCCCN)C(=O)N[C@H](C(=O)N[C@H](C(=O)N[C@H](C(=O)N[C@@H](C)C(=O)N[C@@H](CC(C)C)C(=O)N[C@@H](CS)C(N)=O)[C@@H](C)O)C(C)C)[C@@H](C)CC,human red blood cells,,,pH 5.5,relative to: Triton X-100,EC50,38 µM
O=C1N(Cc2ccccc2Cl)c2ccccc2C12NN=C(c1ccccc1)S2 (stereo not drawn),MDA-MB-468,"gene expression array, measured: NUCKS1 mRNA",,"10 µM, 12 h","relative to: untreated, down",fold change,1.85
CC(C)C[C@H](NC(=O)[C@H](CC(C)C)NC(=O)[C@H](CCCNC(=N)N)NC(=O)[C@H](Cc1c[nH]cn1)NC(=O)[C@H](CC(C)C)NC(=O)[C@H](CCCNC(=N)N)NC(=O)[C@H](CCCNC(=N)N)NC(=O)[C@H](Cc1c[nH]c2ccccc12)NC(=O)[C@H](CC(C)C)NC(=O)[C@H](CCCNC(=N)N)NC(=O)[C@H](Cc1c[nH]c2ccccc12)NC(=O)[C@H](CC(C)C)NC(=O)[C@H](CC(C)C)NC(=O)[C@H](Cc1c[nH]cn1)NC(=O)[C@H](Cc1c[nH]c2ccccc12)NC(=O)[C@H](CC(C)C)NC(=O)[C@@H](N)CCCNC(=N)N)C(=O)N[C@@H](CCCNC(=N)N)C(=O)N[C@@H](CS)C(N)=O,human red blood cells,,,pH 5.5,relative to: Triton X-100,EC50,6 µM
Cn1cncc1C1=CN(c2ncnc3[nH]cnc23)CCS1,UO-31,,,renal cancer,,CC50,> 200 µM
O=c1cc(-c2ccccc2)oc2c(O)c(O)ccc12,induced SH-SY5Y Aβ-GFP cells,,,5 µM,,total neurite length,31.8 to 34 µm
CC[C@H](C)[C@H](NC(=O)CN)C(=O)NCC(=O)N[C@@H](C)C(=O)N[C@H](C(=O)N[C@@H](CC(C)C)C(=O)N[C@@H](CCCCN)C(=O)N[C@H](C(=O)N[C@@H](CC(C)C)C(=O)N[C@H](C(=O)N[C@H](C(=O)NCC(=O)N[C@@H](CC(C)C)C(=O)N1CCC[C@H]1C(=O)N[C@@H](C)C(=O)N[C@@H](CC(C)C)C(=O)N[C@H](C(=O)N[C@@H](CO)C(=O)N[C@@H](Cc1c[nH]c2ccccc12)C(=O)N[C@H](C(=O)N[C@@H](Cc1c[nH]cn1)C(=O)N[C@@H](Cc1c[nH]cn1)C(=O)N[C@@H](Cc1c[nH]cn1)C(=O)N[C@@H](Cc1c[nH]cn1)C(=O)N[C@@H](CCC(=O)O)C(=O)N[C@@H](CCC(=O)O)C(=O)N[C@@H](CS)C(N)=O)[C@@H](C)CC)[C@@H](C)CC)[C@@H](C)O)[C@@H](C)O)C(C)C)C(C)C,human red blood cells,,,pH 7.4,relative to: Triton X-100,EC50,9 µM
COC(=O)[C@@]1(O)C[C@H]2O[C@]1(C)n1c3ccccc3c3c4c(c5c6ccccc6n2c5c31)C(=O)NC4,HeLa expressing Ub(G76V)-GFP,"Ub(G76V)-GFP degradation, cycloheximide chase",,12 µM,,inhibition,76%
CC(C)N1CCC(NC2CCN(c3cccc(-c4cc5cc(F)ccc5[nH]4)c3)CC2)CC1,NCI-H23,,,,,GI50,1.71 µM
Cc1sc2c(c1C)C(c1ccc(Cl)cc1)=N[C@@H](CC(N)=O)c1nnc(C)n1-2,HBL-1,,,"0.1 µM, 120 h",,viability,61.1%
COc1ccc2c(c1)[nH]c1c(C)nccc12,DU-145,"bisulfite pyrosequencing, measured: RASSF1A promoter CpG site 4",,concentration not given,relative to: vehicle,methylation reduction,0%
Oc1ccc(C(c2ccc(O)cc2)(C(F)(F)F)C(F)(F)F)cc1,HepG2 spheroids,Hoechst flow cytometry,,"0.1 µM, 24 h",,S phase cells,7.88 ± 111%
NCC(O)c1ccc(O)cc1 (stereo not drawn),human iPSC-derived cardiomyocytes,"MyBP-C/MYH ratio, plate-normalised SD score",,"concentration not given, primary screen",direction not given,activity score,4.3
O=c1c(O)c(-c2ccc(O)c(O)c2)oc2cc(O)cc(O)c12,induced SH-SY5Y Aβ-GFP cells,,,5 µM,,total neurite length,31.8 to 34 µm
CN1CCN(S(=O)(=O)c2cc([N+](=O)[O-])ccc2N(CCOS(C)(=O)=O)CCOS(C)(=O)=O)CC1,sample DB T-ALL PDX cells,cell viability,ex vivo,"48 h, together with: AKR1C3 inhibitor",relative to: with inhibitor over alone,IC50 fold change,112
CN1CCN(C2(CNC3CCN(c4cccc(-c5cc6cc(F)ccc6[nH]5)c4)CC3)CCC2)CC1,U-251,,,,,TGI,3.33 µM
Cc1cnc2ccc3c(nc(N)n3C)c2n1,BALB/c 3T3,,,0.5 µM,relative to: solvent control,relative colony forming efficiency,102 ± 6%
O=C1C(Cl)=C(Cl)C(=O)C(Cl)=C1Cl,human iPSC-derived cardiomyocytes,"MyBP-C/MYH ratio, plate-normalised SD score",,"concentration not given, primary screen",direction not given,activity score,11.7
Cc1cc(C(C)(C)c2ccc(O)c(C)c2)ccc1O,HepG2 spheroids,Hoechst flow cytometry,,"10 µM, 96 h",,S phase cells,9.2 ± 1.92%
Cn1nccc1Nc1nccc(-c2ccn([C@H](CO)c3ccc(Cl)c(F)c3)c(=O)c2)n1,HCT116,IncuCyte,,"concentration not given, 8 (unit not given)",,PI-positive cells,2.58 count and 2.92 count and 3.25 count
N#Cc1c(Cl)c(Cl)c(Cl)c(C#N)c1Cl,human iPSC-derived cardiomyocytes,"MyBP-C/MYH ratio, plate-normalised SD score",,"concentration not given, primary screen",direction not given,activity score,3.8
COc1c(CCC[P+](c2ccccc2)(c2ccccc2)c2ccccc2)cc2c(c1OC)OCO2.[I-],K562,SRB,,,,LC50,> -4 log M
Nc1ncc(-c2nc(N3CCOCC3)nc(N3CCOCC3)n2)c(C(F)F)n1,SW48,,,72 h,,GI50,0.077 µM
N[C@@H]1C[C@H]1c1ccccc1,HBL-1,,,"1 µM, 120 h",,viability,102%
O=S(=O)(c1ccc(O)cc1)c1ccc(O)cc1,HepG2 spheroids,Hoechst flow cytometry,,"10 µM, 24 h",,S phase cells,8.46 ± 1.89%
Cl[C@H]1[C@H](Cl)[C@@H](Cl)[C@@H](Cl)[C@H](Cl)[C@H]1Cl,human iPSC-derived cardiomyocytes,"MyBP-C/MYH ratio, plate-normalised SD score",,"concentration not given, primary screen",direction not given,activity score,17
C/C=C(/C)C(=O)O[C@H]1C(C)=C2[C@H]([C@@H]1OC(=O)CCCCCCC)[C@@](C)(OC(C)=O)C[C@H](OC(=O)CCC)[C@@]1(O)[C@H]2OC(=O)[C@@]1(C)O,HEK293T,"RNA-seq, measured: CARS mRNA",,"10 µM, 6 h",relative to: vehicle,log2 fold change,1.17
